Experimental data of several laboratories.
Every numbered part comes from another study and shows a few of its results, in no order. “And” joins repeats or separate records; there may be more than shown.

Study 1 — mode: degrader; technique: HiBiT; cell line: HEK293
Compound: Cn1cc(-c2cccc(CN3CCC4(CC3)COc3c4ccc4c3CN([C@@H]3CCC(=O)NC3=O)C4=O)c2)cn1
Zinc finger protein Aiolos: Zinc finger protein Aiolos (Homo sapiens, UniProt Q9UKT9)
UniProt Q9UKT9, sequence (whole entry, looked up): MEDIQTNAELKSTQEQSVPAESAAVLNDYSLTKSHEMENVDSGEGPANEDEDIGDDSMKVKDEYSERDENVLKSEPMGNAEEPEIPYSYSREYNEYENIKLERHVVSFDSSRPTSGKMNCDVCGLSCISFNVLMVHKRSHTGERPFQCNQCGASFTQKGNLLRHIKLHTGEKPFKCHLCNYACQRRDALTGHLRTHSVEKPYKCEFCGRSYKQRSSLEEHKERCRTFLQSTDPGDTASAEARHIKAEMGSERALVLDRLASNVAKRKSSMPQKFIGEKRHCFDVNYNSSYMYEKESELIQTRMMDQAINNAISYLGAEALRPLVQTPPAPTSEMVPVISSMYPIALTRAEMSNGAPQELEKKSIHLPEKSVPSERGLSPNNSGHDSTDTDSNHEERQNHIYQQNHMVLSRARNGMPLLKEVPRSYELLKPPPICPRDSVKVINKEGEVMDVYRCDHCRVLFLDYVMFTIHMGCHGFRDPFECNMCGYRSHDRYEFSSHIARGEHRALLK
GSPT1: Eukaryotic peptide chain release factor GTP-binding subunit ERF3A (GSPT1, Homo sapiens, UniProt P15170)
UniProt P15170, sequence (whole entry, looked up): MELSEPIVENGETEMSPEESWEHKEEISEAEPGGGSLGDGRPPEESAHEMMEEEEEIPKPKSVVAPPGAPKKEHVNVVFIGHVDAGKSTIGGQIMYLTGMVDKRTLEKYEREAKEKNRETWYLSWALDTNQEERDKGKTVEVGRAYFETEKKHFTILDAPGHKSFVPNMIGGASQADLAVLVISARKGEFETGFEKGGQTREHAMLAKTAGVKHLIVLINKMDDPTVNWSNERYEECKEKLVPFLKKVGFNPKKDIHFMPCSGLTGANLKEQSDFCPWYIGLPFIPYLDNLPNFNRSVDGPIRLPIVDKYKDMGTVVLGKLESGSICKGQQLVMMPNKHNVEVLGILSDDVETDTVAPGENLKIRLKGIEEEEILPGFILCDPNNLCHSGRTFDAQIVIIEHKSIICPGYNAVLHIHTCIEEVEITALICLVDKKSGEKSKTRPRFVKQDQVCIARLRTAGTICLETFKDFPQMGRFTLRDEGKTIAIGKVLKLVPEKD
SALL4: Sal-like protein 4 (SALL4, Homo sapiens, UniProt Q9UJQ4)
UniProt Q9UJQ4, sequence (whole entry, looked up): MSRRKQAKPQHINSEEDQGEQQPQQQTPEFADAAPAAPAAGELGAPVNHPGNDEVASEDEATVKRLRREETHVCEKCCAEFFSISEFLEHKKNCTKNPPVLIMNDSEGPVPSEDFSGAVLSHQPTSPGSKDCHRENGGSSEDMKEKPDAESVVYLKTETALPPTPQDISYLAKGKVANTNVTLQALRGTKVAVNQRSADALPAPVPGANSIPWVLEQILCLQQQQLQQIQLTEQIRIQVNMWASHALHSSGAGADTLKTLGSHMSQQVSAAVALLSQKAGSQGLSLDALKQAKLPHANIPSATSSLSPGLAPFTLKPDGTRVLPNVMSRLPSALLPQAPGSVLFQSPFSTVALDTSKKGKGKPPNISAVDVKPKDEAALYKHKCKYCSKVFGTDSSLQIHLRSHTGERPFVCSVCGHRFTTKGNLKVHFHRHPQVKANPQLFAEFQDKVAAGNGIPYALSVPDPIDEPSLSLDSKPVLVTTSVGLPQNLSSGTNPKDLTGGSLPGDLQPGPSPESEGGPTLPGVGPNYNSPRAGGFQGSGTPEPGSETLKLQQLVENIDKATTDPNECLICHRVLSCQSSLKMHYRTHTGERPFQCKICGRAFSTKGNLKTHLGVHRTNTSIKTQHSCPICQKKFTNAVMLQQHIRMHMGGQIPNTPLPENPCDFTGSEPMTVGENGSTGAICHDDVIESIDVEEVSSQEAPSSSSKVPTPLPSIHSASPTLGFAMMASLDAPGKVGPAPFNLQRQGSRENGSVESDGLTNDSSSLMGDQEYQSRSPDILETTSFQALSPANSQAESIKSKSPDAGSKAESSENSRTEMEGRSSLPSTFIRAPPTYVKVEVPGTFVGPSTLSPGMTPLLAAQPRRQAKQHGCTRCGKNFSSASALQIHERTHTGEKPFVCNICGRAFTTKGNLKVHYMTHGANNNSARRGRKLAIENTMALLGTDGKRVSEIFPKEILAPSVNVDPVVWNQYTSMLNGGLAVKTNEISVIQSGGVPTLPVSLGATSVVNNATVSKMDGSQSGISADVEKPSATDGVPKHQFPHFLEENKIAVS
CSNK1A1: Casein kinase I isoform alpha (CSNK1A1, Homo sapiens, UniProt P48729)
UniProt P48729, sequence (whole entry, looked up): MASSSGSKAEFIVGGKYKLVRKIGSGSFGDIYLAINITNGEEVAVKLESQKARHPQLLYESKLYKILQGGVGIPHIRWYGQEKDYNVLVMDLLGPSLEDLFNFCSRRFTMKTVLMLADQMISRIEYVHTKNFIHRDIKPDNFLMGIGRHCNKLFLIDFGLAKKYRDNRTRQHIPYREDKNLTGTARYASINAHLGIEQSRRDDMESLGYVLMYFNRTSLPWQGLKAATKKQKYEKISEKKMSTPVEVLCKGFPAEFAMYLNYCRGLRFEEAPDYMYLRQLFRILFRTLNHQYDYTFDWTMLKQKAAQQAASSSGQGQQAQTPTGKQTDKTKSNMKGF
Zinc finger protein Aiolos; 1111.11 nM — remaining protein: 103% and 96.4%.
Zinc finger protein Aiolos; 3333.33 nM — remaining protein: 98.3% and 91.1%.
For GSPT1; 1111.11 nM: remaining protein read 94.5% and 101%.
The remaining protein was 93.7% and 83.7% (SALL4; 123.5 nM).
For CSNK1A1; 0.5081 nM: remaining protein read 104% and 105%.
GSPT1; 0.5081 nM — remaining protein: 102% and 99.3%.
CSNK1A1; 370.37 nM — remaining protein: 93.9% and 97.6%.
It gave 102% and 93% for remaining protein (CSNK1A1; 123.5 nM).
For SALL4; 1111.11 nM: remaining protein read 81.8% and 82.8%.

Study 2 — effect on: thermal unfolding; technique: differential scanning fluorimetry; tested at: 5.5 µM; reading: higher = more unfolded
SMILES: C[C@@H]1CN(c2ccc(-c3cc(C(=O)NCCOCCOCCOCCOCCNC(=O)/C=C/c4[nH]cc(C(=O)N[C@@H](CC(N)=O)c5ccc(F)c(Cl)c5)c4-c4ccc(Cl)cc4F)ccc3F)cc2NC(=O)c2c[nH]c(=O)cc2C(F)(F)F)C[C@H](C)N1C
DCAF1: DDB1- and CUL4-associated factor 1 (DCAF1, Homo sapiens, UniProt Q9Y4B6)
UniProt Q9Y4B6, sequence (whole entry, looked up): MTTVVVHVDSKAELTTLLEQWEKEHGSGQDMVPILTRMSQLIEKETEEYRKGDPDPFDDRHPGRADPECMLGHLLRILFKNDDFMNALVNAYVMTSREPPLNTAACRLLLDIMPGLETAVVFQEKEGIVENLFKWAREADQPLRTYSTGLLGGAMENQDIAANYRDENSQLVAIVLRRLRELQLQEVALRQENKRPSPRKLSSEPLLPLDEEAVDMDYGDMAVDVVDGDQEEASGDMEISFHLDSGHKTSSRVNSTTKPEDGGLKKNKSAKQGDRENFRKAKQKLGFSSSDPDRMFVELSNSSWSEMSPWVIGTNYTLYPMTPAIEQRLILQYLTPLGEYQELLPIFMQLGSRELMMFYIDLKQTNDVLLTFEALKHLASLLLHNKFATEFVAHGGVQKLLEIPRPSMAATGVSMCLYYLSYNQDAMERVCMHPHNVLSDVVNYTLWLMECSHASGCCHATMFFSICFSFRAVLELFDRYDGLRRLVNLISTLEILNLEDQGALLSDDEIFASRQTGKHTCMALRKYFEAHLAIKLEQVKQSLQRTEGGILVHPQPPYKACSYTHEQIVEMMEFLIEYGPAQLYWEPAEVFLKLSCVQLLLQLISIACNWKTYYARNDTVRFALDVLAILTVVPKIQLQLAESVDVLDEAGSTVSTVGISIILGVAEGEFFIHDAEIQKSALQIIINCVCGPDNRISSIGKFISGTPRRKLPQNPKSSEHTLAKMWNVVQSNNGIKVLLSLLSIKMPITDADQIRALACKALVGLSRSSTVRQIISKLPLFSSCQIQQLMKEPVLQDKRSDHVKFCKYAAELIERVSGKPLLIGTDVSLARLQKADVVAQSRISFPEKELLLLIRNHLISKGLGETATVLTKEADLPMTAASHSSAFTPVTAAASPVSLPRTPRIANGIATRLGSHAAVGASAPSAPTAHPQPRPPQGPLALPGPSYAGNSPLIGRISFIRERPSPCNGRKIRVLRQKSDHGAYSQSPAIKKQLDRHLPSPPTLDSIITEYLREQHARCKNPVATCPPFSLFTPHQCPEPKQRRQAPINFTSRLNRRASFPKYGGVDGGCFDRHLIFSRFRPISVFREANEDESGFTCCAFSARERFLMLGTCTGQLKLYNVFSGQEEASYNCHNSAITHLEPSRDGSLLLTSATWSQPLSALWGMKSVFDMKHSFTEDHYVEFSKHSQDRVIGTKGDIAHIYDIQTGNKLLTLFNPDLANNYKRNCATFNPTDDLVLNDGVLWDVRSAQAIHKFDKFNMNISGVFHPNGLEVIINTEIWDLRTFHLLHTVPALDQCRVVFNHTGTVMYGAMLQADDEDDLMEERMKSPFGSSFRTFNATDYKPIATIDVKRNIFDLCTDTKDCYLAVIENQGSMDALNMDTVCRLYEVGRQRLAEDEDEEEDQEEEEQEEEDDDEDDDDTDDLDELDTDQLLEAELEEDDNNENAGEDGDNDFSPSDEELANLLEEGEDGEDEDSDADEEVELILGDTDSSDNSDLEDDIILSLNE
WDR5: WD repeat-containing protein 5 (WDR5, Homo sapiens, UniProt P61964)
DCAF1; 70.61 °C — “SYPRO Orange fluorescence”: 55100 a.u.
The “SYPRO Orange fluorescence” was 31300 a.u. (DCAF1; 58.01 °C).
It gave 14100 a.u. for “SYPRO Orange fluorescence” (WDR5; 38.4 °C).
For WDR5; 75.61 °C: “SYPRO Orange fluorescence” read 27300 a.u.
WDR5; 70.81 °C — “SYPRO Orange fluorescence”: 17300 a.u.
The “SYPRO Orange fluorescence” was 21500 a.u. (DCAF1; 55.01 °C).
It gave 16400 a.u. for “SYPRO Orange fluorescence” (WDR5; 57.41 °C).
It gave 17700 a.u. for “SYPRO Orange fluorescence” (WDR5; 71.01 °C).

Single results of other studies
With `C#CCN1C(=O)C(O)(C(=O)O)Oc2cc(F)ccc21` (stereo not shown) the inhibition was 70.5% and 72.4% and 70.1% (Abutilon theophrasti; fresh weight; 150 g ai/ha, pre-emergence treatment).
For `CC(C)NC(=O)N1CCC(NC2=Nc3cc(F)ccc3N(CC(F)F)c3ccc(Cl)cc32)C1` (stereo in doubt), the viability was 95.8% (sample C colorectal tumour organoid; 0.1 µM; reference: DMSO).
